Assay results gathered from unrelated publications.
Several values in a cell are separate wells, animals, samples, runs or records. ± marks the error that the study gave.
CD209: CD209 antigen (CD209, Homo sapiens, UniProt Q9NNX6)
Chain of UniProt Q9NNX6 (whole entry, looked up): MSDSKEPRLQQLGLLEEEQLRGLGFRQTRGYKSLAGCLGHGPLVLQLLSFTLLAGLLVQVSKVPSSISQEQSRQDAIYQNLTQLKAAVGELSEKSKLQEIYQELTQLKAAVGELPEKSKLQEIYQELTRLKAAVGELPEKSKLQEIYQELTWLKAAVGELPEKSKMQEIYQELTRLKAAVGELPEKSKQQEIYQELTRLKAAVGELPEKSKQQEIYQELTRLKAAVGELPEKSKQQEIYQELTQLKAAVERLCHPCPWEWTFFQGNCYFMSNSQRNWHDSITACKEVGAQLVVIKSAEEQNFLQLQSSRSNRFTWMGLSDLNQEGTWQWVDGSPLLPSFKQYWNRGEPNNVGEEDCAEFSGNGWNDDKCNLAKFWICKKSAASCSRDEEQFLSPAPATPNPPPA
Kir3.1/Kir3.2: Kir3.1/Kir3.2 (Homo sapiens, UniProt P48051+P48549)
Chain of UniProt P48051 (whole entry, looked up): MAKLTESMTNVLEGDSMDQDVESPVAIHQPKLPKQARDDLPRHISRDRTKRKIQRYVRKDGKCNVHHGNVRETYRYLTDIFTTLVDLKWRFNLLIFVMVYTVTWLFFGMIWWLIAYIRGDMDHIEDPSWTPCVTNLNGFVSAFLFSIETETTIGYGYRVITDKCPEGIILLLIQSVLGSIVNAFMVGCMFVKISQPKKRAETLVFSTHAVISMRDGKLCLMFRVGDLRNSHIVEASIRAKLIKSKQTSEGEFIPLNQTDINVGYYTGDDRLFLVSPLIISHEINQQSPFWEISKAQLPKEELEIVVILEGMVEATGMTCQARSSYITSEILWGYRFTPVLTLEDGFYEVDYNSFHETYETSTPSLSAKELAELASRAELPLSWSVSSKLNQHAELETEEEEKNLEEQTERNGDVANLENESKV
Chain of UniProt P48549 (whole entry, looked up): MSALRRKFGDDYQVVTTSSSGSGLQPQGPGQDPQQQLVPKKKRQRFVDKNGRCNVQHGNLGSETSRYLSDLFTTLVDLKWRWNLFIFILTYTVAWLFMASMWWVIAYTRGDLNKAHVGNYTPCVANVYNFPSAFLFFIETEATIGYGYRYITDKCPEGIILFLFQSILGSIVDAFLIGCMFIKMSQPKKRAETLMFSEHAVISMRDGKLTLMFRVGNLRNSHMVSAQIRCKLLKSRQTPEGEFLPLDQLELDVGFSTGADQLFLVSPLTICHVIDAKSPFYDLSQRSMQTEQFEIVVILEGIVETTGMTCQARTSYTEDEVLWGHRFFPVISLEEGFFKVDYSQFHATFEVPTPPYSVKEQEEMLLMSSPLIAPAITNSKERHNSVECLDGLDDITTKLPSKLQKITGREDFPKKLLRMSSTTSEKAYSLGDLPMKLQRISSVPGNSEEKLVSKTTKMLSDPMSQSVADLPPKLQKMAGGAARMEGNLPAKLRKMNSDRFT
Chain of UniProt P08235 (whole entry, looked up): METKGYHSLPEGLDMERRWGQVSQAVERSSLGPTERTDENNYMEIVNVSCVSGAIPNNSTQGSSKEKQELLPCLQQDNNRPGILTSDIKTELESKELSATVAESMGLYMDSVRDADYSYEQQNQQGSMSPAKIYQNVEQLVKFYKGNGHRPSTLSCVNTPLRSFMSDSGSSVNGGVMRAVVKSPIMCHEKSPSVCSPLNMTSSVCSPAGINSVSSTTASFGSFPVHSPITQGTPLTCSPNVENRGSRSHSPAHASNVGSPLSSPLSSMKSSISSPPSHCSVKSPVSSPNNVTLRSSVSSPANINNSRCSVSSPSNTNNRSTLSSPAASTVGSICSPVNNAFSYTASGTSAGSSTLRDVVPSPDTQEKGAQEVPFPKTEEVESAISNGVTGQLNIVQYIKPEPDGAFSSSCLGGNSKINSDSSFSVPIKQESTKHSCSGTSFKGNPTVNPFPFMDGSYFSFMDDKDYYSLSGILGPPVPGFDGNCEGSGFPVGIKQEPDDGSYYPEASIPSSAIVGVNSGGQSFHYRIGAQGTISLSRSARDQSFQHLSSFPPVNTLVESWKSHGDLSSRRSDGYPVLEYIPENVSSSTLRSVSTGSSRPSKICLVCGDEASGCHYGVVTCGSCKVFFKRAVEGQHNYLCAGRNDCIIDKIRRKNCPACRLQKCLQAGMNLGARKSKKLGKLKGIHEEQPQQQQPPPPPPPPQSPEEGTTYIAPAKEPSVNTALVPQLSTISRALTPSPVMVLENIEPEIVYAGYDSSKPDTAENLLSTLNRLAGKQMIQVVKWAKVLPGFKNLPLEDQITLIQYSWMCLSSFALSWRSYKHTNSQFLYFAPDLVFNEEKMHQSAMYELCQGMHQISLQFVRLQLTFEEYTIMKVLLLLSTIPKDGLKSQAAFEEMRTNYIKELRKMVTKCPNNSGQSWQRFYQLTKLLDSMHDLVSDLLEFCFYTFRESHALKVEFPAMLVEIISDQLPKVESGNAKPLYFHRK
Chain of UniProt Q9JIP4 (whole entry, looked up): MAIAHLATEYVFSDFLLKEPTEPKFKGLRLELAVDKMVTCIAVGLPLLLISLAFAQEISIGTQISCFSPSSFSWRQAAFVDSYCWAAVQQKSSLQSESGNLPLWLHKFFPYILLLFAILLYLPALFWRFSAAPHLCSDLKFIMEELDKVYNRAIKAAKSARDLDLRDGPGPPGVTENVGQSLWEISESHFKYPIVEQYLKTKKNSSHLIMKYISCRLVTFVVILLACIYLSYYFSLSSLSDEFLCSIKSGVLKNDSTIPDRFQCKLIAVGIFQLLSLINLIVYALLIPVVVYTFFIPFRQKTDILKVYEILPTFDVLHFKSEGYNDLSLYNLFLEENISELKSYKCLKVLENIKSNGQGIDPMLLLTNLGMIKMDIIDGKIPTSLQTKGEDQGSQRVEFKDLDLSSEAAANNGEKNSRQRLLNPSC
Chain of UniProt P35367 (whole entry, looked up): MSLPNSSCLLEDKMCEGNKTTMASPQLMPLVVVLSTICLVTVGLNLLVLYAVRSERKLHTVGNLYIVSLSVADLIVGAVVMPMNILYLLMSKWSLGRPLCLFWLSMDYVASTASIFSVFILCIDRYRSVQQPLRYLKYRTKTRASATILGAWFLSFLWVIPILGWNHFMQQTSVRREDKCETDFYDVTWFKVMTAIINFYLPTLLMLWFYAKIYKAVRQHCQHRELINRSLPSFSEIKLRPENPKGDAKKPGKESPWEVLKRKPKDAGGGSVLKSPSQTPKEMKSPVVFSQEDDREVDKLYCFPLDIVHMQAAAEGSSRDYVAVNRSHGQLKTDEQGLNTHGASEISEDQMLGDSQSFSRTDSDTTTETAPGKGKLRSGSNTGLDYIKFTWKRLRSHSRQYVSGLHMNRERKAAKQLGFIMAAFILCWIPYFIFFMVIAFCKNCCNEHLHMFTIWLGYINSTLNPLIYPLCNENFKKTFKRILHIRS
Chain of UniProt P56373 (whole entry, looked up): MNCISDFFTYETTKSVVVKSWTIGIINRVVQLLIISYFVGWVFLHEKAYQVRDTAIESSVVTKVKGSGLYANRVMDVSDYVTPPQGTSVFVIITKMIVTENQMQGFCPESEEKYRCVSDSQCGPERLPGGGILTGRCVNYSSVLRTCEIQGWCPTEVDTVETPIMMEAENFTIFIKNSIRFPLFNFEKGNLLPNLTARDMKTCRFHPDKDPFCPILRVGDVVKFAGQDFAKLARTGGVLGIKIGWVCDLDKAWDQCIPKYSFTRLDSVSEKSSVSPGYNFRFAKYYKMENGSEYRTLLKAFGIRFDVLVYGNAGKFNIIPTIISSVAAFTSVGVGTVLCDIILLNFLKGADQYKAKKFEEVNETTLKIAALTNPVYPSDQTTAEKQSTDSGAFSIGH
Chain of UniProt P34995 (whole entry, unmodified, looked up): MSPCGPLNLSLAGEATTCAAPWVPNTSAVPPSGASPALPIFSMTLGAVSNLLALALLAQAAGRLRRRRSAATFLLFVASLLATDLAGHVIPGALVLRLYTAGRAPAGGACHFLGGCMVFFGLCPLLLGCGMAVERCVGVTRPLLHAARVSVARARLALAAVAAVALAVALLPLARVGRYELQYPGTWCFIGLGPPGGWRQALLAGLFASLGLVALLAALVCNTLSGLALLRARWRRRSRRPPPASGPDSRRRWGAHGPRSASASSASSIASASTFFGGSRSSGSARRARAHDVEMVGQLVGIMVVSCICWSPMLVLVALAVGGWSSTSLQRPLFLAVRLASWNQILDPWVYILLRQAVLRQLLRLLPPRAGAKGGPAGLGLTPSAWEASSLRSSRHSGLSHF
Chain of UniProt P55055 (whole entry, looked up): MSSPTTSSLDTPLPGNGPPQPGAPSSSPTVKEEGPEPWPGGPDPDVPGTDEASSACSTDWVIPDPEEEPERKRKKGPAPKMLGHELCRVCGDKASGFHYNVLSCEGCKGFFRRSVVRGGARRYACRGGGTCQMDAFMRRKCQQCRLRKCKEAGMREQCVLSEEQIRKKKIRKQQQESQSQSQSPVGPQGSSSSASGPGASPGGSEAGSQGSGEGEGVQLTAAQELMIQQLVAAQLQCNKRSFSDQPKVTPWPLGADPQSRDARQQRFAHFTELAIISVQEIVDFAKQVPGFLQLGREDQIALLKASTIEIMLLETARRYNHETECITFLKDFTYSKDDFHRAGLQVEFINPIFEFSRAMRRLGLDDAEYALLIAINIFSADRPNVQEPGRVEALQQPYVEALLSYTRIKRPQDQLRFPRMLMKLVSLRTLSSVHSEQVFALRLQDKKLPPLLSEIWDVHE
Chain of UniProt Q920A1 (whole entry, looked up): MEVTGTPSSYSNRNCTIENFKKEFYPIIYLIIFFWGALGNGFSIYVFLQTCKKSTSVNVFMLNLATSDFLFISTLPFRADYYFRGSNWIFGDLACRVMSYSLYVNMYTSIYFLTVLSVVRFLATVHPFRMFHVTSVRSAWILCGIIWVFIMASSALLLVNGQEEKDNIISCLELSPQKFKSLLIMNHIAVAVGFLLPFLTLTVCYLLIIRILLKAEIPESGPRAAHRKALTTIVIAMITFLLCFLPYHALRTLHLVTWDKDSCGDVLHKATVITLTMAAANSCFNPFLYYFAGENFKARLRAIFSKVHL

Structure (SMILES)	target or system	test	test system	conditions	scale	endpoint	value
O=C(ON1C(=O)CCC1=O)c1cc(C(F)(F)F)cc(C(F)(F)F)c1	CD209	binding, grating-coupled interferometry		Man(α1,2)Man-PEG3 chip surface		EC50	16 µM
Cc1nn(-c2nc3c(F)cc(F)cc3s2)c(O)c1C(c1ccc(C(F)(F)F)cc1)c1c(C)nn(-c2nc3c(F)cc(F)cc3s2)c1O	Cyclic GMP-AMP synthase, catalytic domain; with DNA (CGAS, Homo sapiens, UniProt Q8N884)	cGAS-DNA condensate disruption		concentration not given, added: Cy3-labelled DNA		EC50	4.9 ± 0.7 µM
Nc1nc2c(ncn2[C@@H]2O[C@@H]3COP(=O)(O)O[C@H]3[C@H]2O)c(=O)[nH]1	Cone cGMP-gated channel (Morone saxatilis, UniProt Q3I0N1+Q3I0N2)	channel current, agonist, suction electrode	Morone saxatilis, cone outer segments	added: 20 µM Ca2+		EC50	316 ± 43.9 µM
O=C(COc1cc(Cl)ccc1Cl)Nc1cc(C2CCC2)nn1C1CCOCC1	Kir3.1/Kir3.2	activator, thallium flux	HEK293			EC50	1.1 µM
FC(F)(F)c1cc(Nc2nc(Cl)nc(Cl)n2)cc(C(F)(F)F)c1	CD209	binding, grating-coupled interferometry		Man(α1,2)Man-PEG3 chip surface		EC50	58 µM
CCc1cc(NC(=O)COc2ccc(Cl)cc2Cl)n(CC(F)(F)F)n1	Kir3.1/Kir3.2	activator, thallium flux	HEK293			EC50	0.527 µM
CC(=O)c1cc([N+](=O)[O-])c(Sc2cccc(Cl)c2Cl)s1	Ubiquitin carboxyl-terminal hydrolase 28 (USP28, Homo sapiens, UniProt Q96RU2)	enzyme activity, inhibitor				EC50	> 50 µM
Cn1cc2c(C(=O)O)ccc(NS(=O)(=O)c3ccc(OCC4CCC4)c(Cl)c3)c2n1	Histamine H1 receptor (HRH1, Homo sapiens, UniProt P35367)	antagonist				EC50	> 10 µM
Cn1cc(-c2ccc(-c3cncc(Cl)c3N3CCC4(CCNC4=O)CC3)cc2)cn1	COLO 205	gene expression, microarray, measured: DUSP6 mRNA		concentration not given, 2 h	relative to: untreated cells	log2 fold change	2.98
O=C(COc1ccc(Cl)cc1Cl)Nc1cc(C2CC2)nn1CC(F)(F)F	Kir3.1/Kir3.2	activator, thallium flux	HEK293			EC50	0.526 µM
C[C@]12CCC(=O)C=C1CC[C@@H]1[C@@H]2[C@@H](O)C[C@@]2(C)[C@H]1CC[C@]2(O)C(=O)CO	Mineralocorticoid receptor (NR3C2, Homo sapiens, UniProt P08235)	reporter gene, agonist, Gaussia luciferase reporter		without 18β-glycyrrhetinic acid		EC50	> 2 µM and ~2 µM
Cc1cc(NC(=O)C2CCc3cc(F)ccc3O2)n(C2CCS(=O)(=O)C2)n1 (centres unmarked)	Kir3.1/Kir3.2	activator, thallium flux	HEK293			EC50	> 10 µM
CCCCC[C@H](O)/C=C/[C@H]1[C@H](O)CC(=O)[C@@H]1C/C=C\CCCC(=O)O	Prostaglandin E2 receptor EP1 subtype (PTGER1, Homo sapiens, UniProt P34995, R338A)	IP1 accumulation, agonist	AD293	EP1 R338A mutant		EC50	0.191 µM
O=C(COc1ccc(C(F)(F)F)cc1C(F)(F)F)Nc1cc(C2CC2)nn1CC(F)(F)F	Kir3.1/Kir3.2	activator, thallium flux	HEK293			EC50	1.31 µM
CCCCC/C=C\C\C=C/C=C/C=C/[C@@H](SC[C@H](N)C(=O)O)[C@@H](O)CCCC(=O)O	Cysteinyl leukotriene receptor 2 (Cysltr2, Mus musculus, UniProt Q920A1)	potentiation of cAMP	HEK293T transfected with Cysltr2	added: forskolin 1 µM		EC50	0.0206 µM
COc1c(Nc2cc(C(F)(F)F)cc(C(F)(F)F)c2)c(=O)c1=O	CD209	binding, plate-based HRP		overnight, room temperature		EC50	15 µM
COc1cc(Nc2ncc3c(n2)-c2ccc(Cl)cc2C(c2c(F)cccc2OC)=NC3)ccc1C(=O)NCCOCCOCCNC(=O)COc1cccc2c1C(=O)N(C1CCC(=O)NC1=O)C2=O (centres unmarked)	Ferrochelatase, mitochondrial (FECH, Homo sapiens, UniProt P22830)	binding, kinobead competition	MV4-11 cell lysate			EC50	9.83 µM
CCCCCCCC/C=C\CCCCCCCC(=O)NCCc1ccc(O)c(O)c1	Transient receptor potential cation channel subfamily V member 1 (Trpv1, Mus musculus, UniProt Q704Y3, S511A)	ion current, agonist, whole-cell patch clamp		24 °C, S511A, +80 mV		EC50	0.24 ± 0.05 µM
O=C(COc1ccc(C(F)(F)F)cc1C(F)(F)F)Nc1cc(C2CC2)nn1C1CCOCC1	Kir3.1/Kir3.2	activator, thallium flux	HEK293			EC50	0.349 µM
C#Cc1ccc(C(F)(F)F)cc1C=O	CD209	binding, plate-based HRP		overnight, room temperature		EC50	35 µM
O=C(COc1cc(Cl)ccc1Cl)Nc1cc(C2CCC2)nn1C1CCC(F)(F)CC1	Kir3.1/Kir3.2	activator, thallium flux	HEK293			EC50	0.48 µM
Nc1ncnc2c1ncn2[C@@H]1O[C@H](COP(=O)(O)OP(=O)(O)OP(=O)(O)O)[C@@H](O)[C@H]1O	P2X purinoceptor 3 (P2RX3, Homo sapiens, UniProt P56373)	ion current, agonist, patch clamp	HEK293 expressing wild-type			EC50	0.286 ± 0.011 µM
N#Cc1ccsc1NC(=O)COc1cc(Cl)ccc1Cl	Kir3.1/Kir3.2	activator, thallium flux	HEK293			EC50	> 10 µM
CCCCCCCCCCCCC/C=C/[C@@H](O)[C@@H](N)COP(=O)(O)O	Sphingosine 1-phosphate receptor 3 (S1PR3, Homo sapiens, UniProt Q99500)	agonist, cell-based				EC50	0.0245 µM
COc1ccc(Cl)cc1C(=O)NCCc1ccc(S(=O)(=O)NC(=O)NC2CCCCC2)cc1	Pannexin-1 (Panx1, Mus musculus, UniProt Q9JIP4)	ion current, inhibitor, two-electrode voltage clamp	Xenopus oocytes	+50 mV pulses		EC50	45 µM
CCOc1ccc(N(C)S(=O)(=O)c2cc(Cl)sc2C(=O)Nc2ccc3c(c2)C(=O)NC3=O)cc1OC	Oxysterols receptor LXR-beta (NR1H2, Homo sapiens, UniProt P55055)					EC50	> 25 µM

Some of these lines once more:
Structure (SMILES)	target or system	test	test system	conditions	scale	endpoint	value
Nc1ncnc2c1ncn2[C@@H]1O[C@H](COP(=O)(O)OP(=O)(O)OP(=O)(O)O)[C@@H](O)[C@H]1O	P2X purinoceptor 3 (P2RX3, Homo sapiens, UniProt P56373)	ion current, agonist, patch clamp	HEK293 expressing wild-type			EC50	0.286 ± 0.011 µM
C[C@]12CCC(=O)C=C1CC[C@@H]1[C@@H]2[C@@H](O)C[C@@]2(C)[C@H]1CC[C@]2(O)C(=O)CO	Mineralocorticoid receptor (NR3C2, Homo sapiens, UniProt P08235)	reporter gene, agonist, Gaussia luciferase reporter		without 18β-glycyrrhetinic acid		EC50	> 2 µM and ~2 µM
